Measured values collected from several papers.
Protocols differ between the studies behind these lines. “And” joins repeats or separate records; there may be more than shown. ± marks the error that the study gave.

| SMILES | assay | system | setting | how to read | quantity | value |
| --- | --- | --- | --- | --- | --- | --- |
| O=C(O)c1ccc(-c2nc(-c3ccccc3Cl)c3sccn23)cc1 |  | mouse | dose not given, day 10, together with: 5-fluorouracil | relative to: body weight | spleen weight | 0.0031% and 0.0033% and 0.0029% |
| Cc1n[nH]c(C)c1CCCOc1cc(C(=O)NCCCCC(NC(=O)CN2CCN(CC(=O)[O-])CCN(CC(=O)[O-])CCN(CC(=O)[O-])CC2)C(=O)NCC2CCC(C(=O)NC(Cc3ccc4ccccc4c3)C(=O)NCCCCC(NC(=O)NC(CCC(=O)O)C(=O)O)C(=O)O)CC2)ccc1F.[177Lu+3] (centres unmarked) |  | mice with 22Rv1 xenografts | 14.8 MBq, 21 days | relative to: control | tumour growth | inhibited |
| O=c1n(CCNCCOS(=O)(=O)c2ccccc2)c(=O)n(S(=O)(=O)c2ccccc2)c(=O)n1S(=O)(=O)c1ccccc1 | DPPH scavenging |  | 125 µg/mL |  | inhibition | 49% |
| COc1ccccc1-c1n[nH]c2nc(NC3CCN(C(=O)Cc4ccc(F)cc4F)CC3)ncc12 | bead binding, competition bead pull-down, refers to: LINJ.25.1850 | Leishmania donovani extract | 10 µM | relative to: vehicle | relative abundance | 1.37 |
| CC(C)C[C@@H]1NC(=O)[C@@H](Cc2c[nH]c3ccccc23)NC(=O)[C@H](CCCNC(=N)N)NC(=O)[C@@H](CCC(=O)O)NC(=O)[C@H](CCC(N)=O)NC(=O)[C@@H](CCC(=O)O)NC(=O)[C@H](CCCNC(=N)N)NC(=O)[C@@H](Cc2c[nH]c3ccccc23)NC1=O |  | male LDLr-/- mice, Western diet | dose not given, 2 weeks | relative to: vehicle | plasma total cholesterol | decreased |
| CCN(Cc1ccccc1)C(=O)CCc1nc(CN2CCN(C(=O)Cc3ccc(OC)c(OC)c3)CC2)no1 | current clamp | DRG neurons, naive rat | 3 µM |  | action potential amplitude | 85.5 ± 10.4 mV |
| CC(=O)NCSC[C@H](NC(=O)[C@@H]1CCCN1C(=O)[C@H](C)NC(=O)[C@@H](NC(=O)CNC(=O)[C@@H](NC(=O)[C@H](Cc1c[nH]c2ccccc12)NC(=O)[C@H](C)NC(=O)CNC(=O)[C@H](CO)NC(=O)[C@H](C)NC(=O)[C@@H]1CCCN1C(=O)[C@H](Cc1c[nH]c2ccccc12)NC(=O)[C@H](C)NC(=O)[C@H](C)NC(=O)[C@@H](N)Cc1ccc(O)cc1)[C@@H](C)O)[C@@H](C)O)C(=O)N[C@@H](CO)C(=O)N[C@@H](C)C(=O)NCC(=O)N[C@H](C(=O)NCCOCCOCCOCCOCCOCCOCCOCCOCCOCCOCCOCCOCCC(=O)N[C@@H](CS)C(N)=O)[C@@H](C)O | phage binding | panel of 11 cancer lines | selectivity at least 20 |  | number of cell lines | 3 |
| O=S(=O)(N[C@H]1CCO[C@@H](C2c3ccccc3CCc3ccccc32)C1)c1ccc(OC(F)(F)F)cc1 |  | mouse, orthotopic D425 medulloblastoma | oral gavage, 75 mg/kg twice daily |  | median survival | 14 days |
| COc1ccccc1-c1n[nH]c2nc(N[C@H]3CC[C@H](NS(=O)(=O)CC(C)C)CC3)ncc12 | bead binding, competition bead pull-down, refers to: LINJ.35.2780 | Leishmania donovani extract | 10 µM | relative to: vehicle | relative abundance | 1.08 |
| Cc1ccc(S(=O)(=O)N2CC2C(=O)N(C)C)cc1 (centres unmarked) |  | mouse, Lewis lung carcinoma | intraperitoneal, 170 mg/kg, 16 doses, day 12 |  | tumour growth inhibition | 11% |
| O=C(NCc1cc(F)cc(F)c1)[C@@]1(O)CCN(c2ccc3[nH]ccc3c2)C1=O |  | sample F PDX mouse | dose not given, RTV endpoint 500% |  | median survival time | > 80 days |

For quick reference, copied from above:
| SMILES | assay | system | setting | how to read | quantity | value |
| --- | --- | --- | --- | --- | --- | --- |
| Cc1n[nH]c(C)c1CCCOc1cc(C(=O)NCCCCC(NC(=O)CN2CCN(CC(=O)[O-])CCN(CC(=O)[O-])CCN(CC(=O)[O-])CC2)C(=O)NCC2CCC(C(=O)NC(Cc3ccc4ccccc4c3)C(=O)NCCCCC(NC(=O)NC(CCC(=O)O)C(=O)O)C(=O)O)CC2)ccc1F.[177Lu+3] (centres unmarked) |  | mice with 22Rv1 xenografts | 14.8 MBq, 21 days | relative to: control | tumour growth | inhibited |
| O=c1n(CCNCCOS(=O)(=O)c2ccccc2)c(=O)n(S(=O)(=O)c2ccccc2)c(=O)n1S(=O)(=O)c1ccccc1 | DPPH scavenging |  | 125 µg/mL |  | inhibition | 49% |
